Measurements gathered from unrelated publications.
Protocols differ between the studies behind these lines. ± marks the error that the study gave.
Cell line: Caco-2

Compound	assay	setting	scale	measurement	value
O=C(Nc1ccc(CN2CCOCC2)c(C(F)(F)F)c1)c1ccc(C#Cc2cccc3cnccc23)cn1	–	5 µM, 120 min, A-to-B, apical dosing	–	recovery	80.6%
C[C@]12CC[C@@H]3c4ccc(OS(=O)(=O)O)cc4CC[C@H]3[C@@H]1CCC2=O	–	no inhibitor, BCRP (novobiocin) set	–	Papp (A to B)	0.367 ×10⁻⁶ cm/s
CC[C@@H]1C(=O)N(C)c2cnc(Nc3ccc(C(=O)NC4CCN(C)CC4)cc3OC)nc2N1C1CCCC1	–	10 µM, 2 h	–	recovery B-A	71.6%
C[C@H]1O[C@@H](O[C@H]2[C@@H](O)C[C@H](O[C@H]3[C@@H](O)C[C@H](O[C@H]4CC[C@@]5(C)[C@H](CC[C@@H]6[C@@H]5C[C@@H](O)[C@]5(C)[C@@H](C7=CC(=O)OC7)CC[C@]65O)C4)O[C@@H]3C)O[C@@H]2C)C[C@H](O)[C@@H]1O	transwell permeability	5 µM, 1 h	–	recovery	106%
O=C(O)c1ccc(O)cc1	–	5 µM, 60 min, total recovered amount	–	parent remaining	≤ 22%
NS(=O)(=O)c1nnc(NC(=O)CCC2CC3CCC2C3)s1 (stereo not shown)	–	–	–	Papp A to B	8.7 ×10⁻⁶ cm/s
C=CC(=O)N(C)CCOc1c(N)ncnc1-c1cc(F)cc(NC(=O)c2ccc(C3CC3)cc2F)c1C	–	100 µg/mL, passive permeability with efflux inhibitors	–	Papp	17 ×10⁻⁶ cm/s
C[C@H]1O[C@@H](O[C@H]2[C@@H](O)C[C@H](O[C@H]3[C@@H](O)C[C@H](O[C@H]4CC[C@@]5(C)[C@H](CC[C@@H]6[C@@H]5C[C@@H](O)[C@]5(C)[C@@H](C7=CC(=O)OC7)CC[C@]65O)C4)O[C@@H]3C)O[C@@H]2C)C[C@H](O)[C@@H]1O	–	5 µM, 2 h, basolateral to apical	–	recovery	83.5%
C#Cc1c(F)ccc2cc(O)cc(-c3ncc4c(N5CC6CCC(C5)N6)nc(OC[C@@]56CCCN5C[C@H](F)C6)nc4c3F)c12	–	no inhibitor, P-gp (verapamil) set	–	Papp (B to A)	11 ×10⁻⁶ cm/s
O=C(O)C=Cc1ccc(O)cc1	Transwell mass balance	1 mM, time not given, basolateral to apical	–	recovery	116%
CN(C)C/C=C/C(=O)Nc1cc2c(Nc3ccc(F)c(Cl)c3)ncnc2cc1O[C@H]1CCOC1	–	100 µM, 3 h	–	Papp B-A	~4 ×10⁻⁶ cm/s
COc1nc(NCc2cn(-c3ccc(C(=O)Nc4ccc([N+](=O)[O-])cc4)cc3)nn2)nc(OC)n1	MTT	–	reference: normal rat colonocytes over Caco-2	selectivity ratio	0.08
O=c1c2cc(Cl)ccc2[nH]c(=S)n1Cc1ccc(-c2nnn[nH]2)nc1	–	10 µM, 90 min, pH 7.4, 0.1% BSA receiver side	–	Papp (B to A)	5.5 ×10⁻⁶ cm/s
CCCOc1nc(-c2cccc(O)c2)cc(-c2cc3cc(Cl)ccc3nc2N2CCOCC2)c1C#N	MTT	72 h, 10% FBS	reference: WI-38 EC50 over Caco-2 IC50	selectivity ratio	0.172
O=C(Nc1c2c(cc3c1CCC3)CCC2)NS(=O)(=O)/C=C/c1nccs1	–	2 µM, 120 min, pH 7.4	–	Papp(B-A)	10.8 ×10⁻⁶ cm/s
COc1nc(NCc2cn(-c3ccc(NC(=O)c4ccc(F)cc4)cc3)nn2)nc(OC)n1	MTT	–	reference: normal rat colonocytes over Caco-2	selectivity ratio	0.02
Cc1nsc(-c2nnc3n2CCN(C(=O)c2ccc(F)cc2)[C@@H]3C)n1	–	–	–	passive permeability	102 ×10⁻⁶ cm/s
C[C@@H]1CCN(C(=O)CC#N)C[C@@H]1N(C)c1ncnc2[nH]ccc12	–	5 µM, 120 min	–	Papp A-B	11.8 ×10⁻⁶ cm/s
CCn1c(C(=O)N(C2CC2)C2CC2)cc2c3c(ncn3C)c(Nc3cc(C)n(C)n3)nc21	–	–	–	Papp	50 ×10⁻⁶ cm/s
COc1nc(NCc2cn(-c3ccc(NC(=O)c4ccc(C(F)(F)F)cc4)cc3)nn2)nc(OC)n1	MTT	–	reference: normal rat colonocytes over Caco-2	selectivity ratio	0.12

Compound	assay	setting	scale	measurement	value
CCCCOC(=O)c1ccc(O)cc1	–	5 µM, 60 min, A-B direction	–	hydrolysed compound	52.1 ± 5.6%
Nc1n[nH]c2nc(-c3cccc(O)c3)cc(-c3cc4cc(Cl)ccc4nc3N3CCOCC3)c12	MTT	72 h, 10% FBS	reference: WI-38 EC50 over Caco-2 IC50	selectivity ratio	0.696
CC(C)NCC(O)COc1cccc2ccccc12 (stereo not shown)	–	2 µM, 120 min, pH 7.4	–	Papp(A-B)	16.9 ± 0.645 ×10⁻⁶ cm/s
CC[C@H](C)C(=O)N1CCC(NC(=O)Nc2ccc(OC(F)(F)F)c(F)c2)CC1	Caco-2 permeability	10 µM, 60 min, pH 7.4 apical, 7.4 basolateral, replicate 1, added: verapamil	apical to basolateral	percent recovery	46%
CCCCCCCCOC(=O)c1ccc(O)cc1	–	5 µM, 60 min, A-B direction	–	hydrolysed compound	42.3 ± 2.3%
CCOc1cc(C(C)(C)C)ccc1C1=N[C@@H](c2ccc(Cl)cc2)[C@@H](c2ccc(Cl)cc2)N1C(=O)N1CCN(CC(=O)NCCOCCOCCOCCNC(=O)CN2CCN(C(=O)N3C(c4ccc(C(C)(C)C)cc4OCC)=N[C@@H](c4ccc(Cl)cc4)[C@H]3c3ccc(Cl)cc3)CC2=O)C(=O)C1 (relative stereo)	–	10 µM, 2 h, 37 °C	–	Papp B to A	0.02 ×10⁻⁶ cm/s
CCOc1cc(-c2nncn2C)ccc1Nc1ncc2cc(C)nc(NCC(C)(C)C)c2n1	–	10 µM	–	Papp(B-A)	5.28 ×10⁻⁶ cm/s
COc1nc(NCc2cn(-c3ccc(C(=O)Nc4ccc(C)cc4)cc3)nn2)nc(OC)n1	MTT	–	reference: normal rat colonocytes over Caco-2	selectivity ratio	0.27
CC(C)NCC(O)COc1cccc2ccccc12 (stereo not shown)	–	pH 7.4	–	Papp	30.7 ± 0.4 ×10⁻⁶ cm/s
Cc1ccc(CCC(=O)Nc2nnc(S(N)(=O)=O)s2)cc1	–	–	–	Papp B to A	13.8 ×10⁻⁶ cm/s
CC(C)(C)OC(=O)c1ccc(O)cc1	–	5 µM, 60 min, A-B direction	–	hydrolysed compound	1.1 ± 0.1%
N#C[C@@]1(c2ccc3c(N)ncnn23)O[C@H](CO)[C@@H](O)[C@H]1O	bidirectional permeability	10 µM, 120 min	apical to basolateral	recovery	106%
CS(=N)(=O)c1ccc(C(F)(F)F)cc1 (stereo not shown)	–	–	–	Papp(A-B)	88 ×10⁻⁶ cm/s
CC(C)NCC(O)COc1cccc2ccccc12 (stereo not shown)	–	–	–	apparent permeability	22.6 ×10⁻⁶ cm/s
CN(C)CC(=O)OCc1cc2[nH]c(=S)n(Cc3cccnc3)c(=O)c2cc1Cl	–	10 µM, 90 min, pH 7.4, 0.1% BSA receiver side	–	Papp (B to A)	2.2 ×10⁻⁶ cm/s
COc1nc(NCc2cn(-c3ccc(C(=O)Nc4ccc(Br)cc4)cc3)nn2)nc(OC)n1	MTT	–	reference: normal rat colonocytes over Caco-2	selectivity ratio	0.15
O=c1c2cc(Cl)c(CO)cc2[nH]c(=S)n1Cc1cccnc1	–	10 µM, 90 min, pH 7.4, 0.1% BSA receiver side	–	Papp (B to A)	22 ×10⁻⁶ cm/s
CC(C)NCC(O)COc1cccc2ccccc12 (stereo not shown)	–	5 µM, 2 h, basolateral to apical	–	recovery	75.2%
C1CCc2c(c(N3CCOCC3)nc3sc4c(N5CCNCC5)nnnc4c23)C1	–	10 µM, 120 min, pH 7.4, without inhibitor	–	Papp B-A	15.9 ×10⁻⁶ cm/s
NS(=O)(=O)c1nnc(NC(=O)CCC2CCC(F)(F)CC2)s1	–	–	–	Papp A to B	1 ×10⁻⁶ cm/s

Repeated from above:
Compound	assay	setting	scale	measurement	value
O=c1c2cc(Cl)c(CO)cc2[nH]c(=S)n1Cc1cccnc1	–	10 µM, 90 min, pH 7.4, 0.1% BSA receiver side	–	Papp (B to A)	22 ×10⁻⁶ cm/s
CC(C)NCC(O)COc1cccc2ccccc12 (stereo not shown)	–	5 µM, 2 h, basolateral to apical	–	recovery	75.2%
C1CCc2c(c(N3CCOCC3)nc3sc4c(N5CCNCC5)nnnc4c23)C1	–	10 µM, 120 min, pH 7.4, without inhibitor	–	Papp B-A	15.9 ×10⁻⁶ cm/s
